Experimental data from different studies.
Each numbered part is a random draw from the data of one study; scales do not carry over between parts. Positions count from the first letter of the parent shown.

Study 1 — method: protein-binding microarray; form: double-stranded DNA, one strand shown; sample: in vitro; concentration: 2540 nM top; notes: 60-bp whole probe; together with: salmon DNA 0.4 mg/ml; reference: random background probes; direction: higher = stronger binding; shared flanks, not repeated: GCCTAGCAC … GTCTTGATTCGCTTGACGCTGCTG
Target: Interferon regulatory factor 3, full length, phosphomimetic (IRF3, Homo sapiens, UniProt Q14653, residues 1-427, S386D/S396D/S398D/S402D/T404D/S405D)
UniProt Q14653, sequence (whole entry, unmodified, looked up): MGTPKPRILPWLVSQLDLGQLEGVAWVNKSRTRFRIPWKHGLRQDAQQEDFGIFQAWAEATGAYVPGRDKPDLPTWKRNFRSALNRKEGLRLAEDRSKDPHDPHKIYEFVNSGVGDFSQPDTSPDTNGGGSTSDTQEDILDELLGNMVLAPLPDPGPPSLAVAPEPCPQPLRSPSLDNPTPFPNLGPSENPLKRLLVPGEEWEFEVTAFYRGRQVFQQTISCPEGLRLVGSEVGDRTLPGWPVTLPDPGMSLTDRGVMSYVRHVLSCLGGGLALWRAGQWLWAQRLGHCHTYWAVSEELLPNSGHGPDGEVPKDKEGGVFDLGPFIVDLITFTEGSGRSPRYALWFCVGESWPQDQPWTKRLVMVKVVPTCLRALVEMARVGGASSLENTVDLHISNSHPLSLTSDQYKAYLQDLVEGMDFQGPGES
| Strand | fitted relative affinity |
| --- | --- |
| TCATATATATATTATATAACTGTGCTA | 0.784 z-score |
| GACGGAATCGGTTTCGGGACGTGCTAG | 4.47 z-score |
| GACGGAGTGGGTTTCGGGACGTGCTAG | 1.2 z-score |
| CTGAGGCTGTGTTTTCACTTTGTGCTA | -0.0115 z-score |
| TCAGCTCTTGTTTTCACACTGTGCTAG | 0.613 z-score |
| TTAGGACGGGGGACTGGGTTAGTGCTA | -0.432 z-score |
| GACGGTCTCGGGACTGGGGACGTGCTA | -0.142 z-score |
| TTAGGTCTCGGGACTGGGTTAGTGCTA | -0.466 z-score |
| ACAGAACTCAACTGTCTGCCTGTGCTA | -0.151 z-score |
| TCAATCATCCGTTTCTTACTGTGCTAG | 1.7 z-score |
| GACGAACTAGGGTATCGAGACGTGCTA | -0.307 z-score |
| GACGGTTTCCTTTTCCCGACGTGCTAG | 10.3 z-score |
| CACTTTCTTTAACTCATTCTGTGCTAG | 2.81 z-score |
| GACGGTATCGACTATAGGGACGTGCTA | 0.596 z-score |
| TCAAGTTTCTTTTCTTTACTGTGCTAG | 6.37 z-score |
| GACGATTTGGGGACTGGAGACGTGCTA | -0.0509 z-score |
| TACAAATCCAGCCCTACAGAGTGCTAG | -0.0184 z-score |
| TTAAGTATCGGTTTCGGTTAGTGCTAG | 8.87 z-score |
| GACGGTCTCCTTCTCTTGACGTGCTAG | 4.27 z-score |
| GTAGGTATCGGGTTTCGGTTAGTGCTA | 3.98 z-score |
| GACAGTTTCCTTATCCTGACGTGCTAG | 8.36 z-score |
| GACGGTCTCCTTTTCATGACGTGCTAG | 4.48 z-score |
| TCACTTTTTGCTTTCTTACTGTGCTAG | 1.98 z-score |
| GACGATTCCAGTTCCGAGACGTGCTAG | 1.77 z-score |
| TTAAGTCTCGGACTGGGTTAGTGCTAG | -0.168 z-score |

Study 2 — method: RNA Bind-n-Seq; form: RNA; sample: in vitro; concentration: not given; reference: input RNA pool; direction: higher = stronger binding
Target: RING finger protein unkempt homolog, zinc fingers 1-6, GST-SBP tag (UNK, Homo sapiens, UniProt Q9C0B0, residues 30-357)
UniProt Q9C0B0, sequence (30-357, looked up): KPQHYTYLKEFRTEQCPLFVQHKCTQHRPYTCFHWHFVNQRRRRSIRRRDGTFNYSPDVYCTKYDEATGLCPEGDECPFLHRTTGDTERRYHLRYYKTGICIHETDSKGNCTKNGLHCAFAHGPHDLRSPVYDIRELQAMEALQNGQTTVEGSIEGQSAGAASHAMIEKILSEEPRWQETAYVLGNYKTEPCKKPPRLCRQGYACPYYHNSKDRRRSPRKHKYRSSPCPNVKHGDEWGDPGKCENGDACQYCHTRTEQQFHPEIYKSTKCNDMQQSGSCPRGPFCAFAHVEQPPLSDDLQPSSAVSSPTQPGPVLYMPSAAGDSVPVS
Notes: RNA with constant flanks, human and mouse sites, ends assumed
Shared flanks, not repeated: GGGAGUUCUACAGUCCGACGAUC … CAACAGAGGAUUGAGCAUCA
| Strand | bound/input enrichment |
| --- | --- |
| GGAUUUGGAGAUGCAGUGGAUAAUAGUAAUUGCUGGCAGCCUGUUAUCGACUACAUUGAUAGUAAAUUUGAAGAUUACUUAAAUGCAGAAUCUCGAGUGAACAGACGUCAGAUGCCUGAU | 0.545 ratio |
| GACAUGCACGUGGCCGACAUGCUUGUUAAGGUGAAUGCCCUUAUCAAGGAGCGUGAAGGCUAUGCCCCUGGCACAGAAUUCCACCGAUGCAAGGAGAUGUCUGAGUACUGUAGUACUCUG | 0.101 ratio |
| UGGUAAAAUUCUGCUCUCAUGAACAAGGAGUCACUUCAUAGAUUGUGAUCAACAGCUUGGUAGUACUUGCUGUAAGGGAUUGAGUUGCGCCAGACUUUGUCUCUUUAUUCUUGUGCAGUG | 0.179 ratio |
| UCCCUGUGCUUACUAAAUGAUUUGUGAAGAACUGUCCCCAAGUUGUAACCCAUGUACUCCCUUAGAGUUGCUGCAAAAUGUCUCUUAUAUUGAUGUUGUUUGUUUACCUGACUCUCCAUA | 1.62 ratio |
| UCGGUCUUCAAUAACAAGAACAGUGGCUUCUGGCACAGCAGCCUCAUUGACCGGAACCUCAUAGAUUAUUUUGUCCCCUUCCUGCCCCUGGAGUACAAGCACCUGAAAAUGUGCAUCAGA | 1.86 ratio |
| CUCACAGCCUCACGGUUCCCAGCCCCAGCACAGUGGAGGCAGGCGUGGCUGCAUUCCCCUCACGCUACCCUCCCAGCGGCUUGUAGCCGUCACUGGCCAGACCUCCAGGGUGCGGAAUCA | 0.138 ratio |
| GGAGGUUCAGAUUUCUUAAGGAAACGGUUGCAGAAAGGGCAAAAAUAUUUUGAUUCUGGGGAUUACAACAUGGCUAAAGCAAAAAUGAAGAACAAGCAACUUCCUACUGCAGCUCCGGAU | 0.308 ratio |
| AAUAAGAGAAAAGAUAACAAGAAAACAGAUACCGAAGAAGAAGUAAAAAUACCAGUAGUGUGUGCUUUAACUCAAGAAGAAUCUUCAACCCCAUUAUCAAAUGAAGAGGAGCAUUUAGAC | 2.11 ratio |
| UUGAAAUUGUUCUUUUUAUUUUCAGGGAUACCGUUUAAUUUAAUUAUAUGAUUUGUCUGCACUCAGUUUAUUCCCUACUCAAAUCUCAGCCCCAUGUUGUUCUUUGUUAUUGUCAGAACC | 0.332 ratio |
| UGUGACUGGUGGAGUGUUGGUGUUAUUCUUUUUGAAAUGUUGGUGGGACAACCUCCUUUCUUGGCACAAACCCCAUUAGAAACACAAAUGAAGGUUAUCAACUGGCAAACUUCUCUUCAC | 0.231 ratio |
| ACUGGCUUCGGCAUCAUCCCUGUGGGCGGCACUUACCUCAUUCAGUCUGUUCCAGCUGAGCUCAAUAUGGAUCACACCGUGGUGCUGCAGCUGGCAGAGAAUGGCUACGUGACUGUCAGU | 0.0745 ratio |

Study 3 — target: CCND3, cyclin fold, Cln2 fusion (human); method: yeast growth competition, sequencing; sample: yeast; notes: weak parent motif; reference: not given; direction: higher = stronger binding
Parent: MICAL3 docking peptide (human); LQLRRQLSFSEDS; partner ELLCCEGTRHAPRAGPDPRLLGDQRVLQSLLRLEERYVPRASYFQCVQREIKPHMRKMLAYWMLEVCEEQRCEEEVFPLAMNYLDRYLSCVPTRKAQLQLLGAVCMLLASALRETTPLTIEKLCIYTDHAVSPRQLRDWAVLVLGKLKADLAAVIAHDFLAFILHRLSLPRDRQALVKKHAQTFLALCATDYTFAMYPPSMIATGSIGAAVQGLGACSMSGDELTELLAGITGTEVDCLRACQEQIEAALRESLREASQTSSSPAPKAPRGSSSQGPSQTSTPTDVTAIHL
| Variant | normalised enrichment score |
| --- | --- |
| LQLRRQLSFHEDS [S10H] | 0.0044 |
| LQCRRQLSFSEDS [L3C] | 0.0936 |
| LQLMRQLSFSEDS [R4M] | -0.35 |
| LQLRRQLAFSEDS [S8A] | 0.0724 |
| LQLQRQLSFSEDS [R4Q] | -0.178 |
| LQLRRQLSFSPDS [E11P] | 0.108 |
| LQLRRQLSFVEDS [S10V] | -0.135 |
| LQLRRQLSFSEPS [D12P] | 0.108 |
| LQLRRQLSFSEKS [D12K] | -0.109 |
| LQLRCQLSFSEDS [R5C] | 0.239 |
| LQLCRQLSFSEDS [R4C] | -0.209 |
| LQLRRQLSVSEDS [F9V] | -0.0749 |
| LQLRRQVSFSEDS [L7V] | 0.395 |
| LQLRRQLSFMEDS [S10M] | 0.179 |
| LQLRRQLSESEDS [F9E] | -0.0464 |
| LQLRRQLYFSEDS [S8Y] | 0.308 |
| LQLSRQLSFSEDS [R4S] | 0.0685 |
| LQLRRQLSFSEFS [D12F] | -0.0275 |
| LQLRRQLSRSEDS [F9R] | 0.169 |
| LQERRQLSFSEDS [L3E] | 0.00577 |
| LQLRRQLSFYEDS [S10Y] | 0.278 |
| LQLRRQLSFSQDS [E11Q] | -0.0281 |
| LQLRRQTSFSEDS [L7T] | 0.107 |
| LLLRRQLSFSEDS [Q2L] | 0.424 |
| LQLRRQLSFPEDS [S10P] | 0.167 |

Study 4 — target: DDIT3, bZIP domain (human); method: DHFR protein complementation; sample: yeast; reference: wild-type JUN-FOS pair; direction: higher = stronger binding
Notes: single substitutions, most at no-binding floor
Parent: JUN, bZIP domain (human); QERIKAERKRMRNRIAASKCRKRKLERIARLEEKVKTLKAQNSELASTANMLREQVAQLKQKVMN; partner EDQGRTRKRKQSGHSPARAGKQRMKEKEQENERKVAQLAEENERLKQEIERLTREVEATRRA
| Variant | binding fitness [natural log] |
| --- | --- |
| L45R | -1.27 |
| L52I | -0.775 |
| Q41V | -0.0412 |
| S43N | 0.0581 |
| E54Y | -0.255 |
| A40D | -0.0174 |
| K34N | -0.0902 |
| Q55R | -0.0119 |
| A40S | -0.0139 |
| L38A | -1.17 |
| Q55G | -1.11 |
| S43D | 0.0763 |
| K36R | 0.105 |
| N42V | -1.03 |
| Q58S | 0.0163 |
| V56W | -0.073 |
| R30C | 0.0343 |
| V35G | -0.875 |
| A46G | -0.405 |
| K36G | -0.233 |
